Results of several laboratories.
Each numbered part is a random draw from the data of one study; scales do not carry over between parts. Substitutions count along the parent as printed.

Block 1
Target: CCND1, cyclin fold, Cln2 fusion (human)
Method: yeast growth competition, sequencing
Medium: yeast
Notes: weak parent motif
Baseline: not given
Direction: higher = stronger binding
Endpoint: normalised enrichment score
Parent: BRCA2 docking peptide (human); PSIKRNLLNEFDR
PSIKRQLLNEFDR [N6Q]: -0.0314
PSIKRNLLNKFDR [E10K]: -0.283
PSIYRNLLNEFDR [K4Y]: 0.339
PSIKRNLLPEFDR [N9P]: 0.639
PSIKRNLLNEFTR [D12T]: 0.0549
PSIKRNLANEFDR [L8A]: 0.203
PSIKRNLLNEWDR [F11W]: -0.405
PSIPRNLLNEFDR [K4P]: 0.312
PSIKRNLLQEFDR [N9Q]: 0.36
PSIKRNLLLEFDR [N9L]: 0.728
PSIKDNLLNEFDR [R5D]: 1.34
PSIKRNLLNSFDR [E10S]: 0.317
PSISRNLLNEFDR [K4S]: 0.492

Block 2
Target: Histone acetyltransferase KAT6A, both winged helices, GST fusion (KAT6A, Homo sapiens, UniProt Q92794, residues 1-181)
Method: protein binding microarray
Molecule type: double-stranded DNA, one strand shown
Medium: in vitro
Concentration: not given
Notes: 8-mer, flanks averaged, mean of 2 arrays, mostly near background
Baseline: not given
Direction: higher = stronger binding
Endpoint: E-score
Residues (chain): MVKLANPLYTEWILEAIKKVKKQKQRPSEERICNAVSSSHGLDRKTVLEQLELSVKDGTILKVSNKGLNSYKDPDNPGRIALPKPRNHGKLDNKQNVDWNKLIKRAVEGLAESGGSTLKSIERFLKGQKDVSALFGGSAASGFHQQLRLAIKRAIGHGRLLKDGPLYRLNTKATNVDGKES
GTCCTAGA: -0.00037
GTTCGAAC: -0.0943
GACATCAA: -0.1
CCGCGCGA: 0.334
AATATTAG: -0.178
ACATGCAC: -0.0906
ATTCGAGA: -0.106
CCGTCTTA: 0.0967
GCTAATAA: 0.0403
CACGAACG: 0.0104
CCGTTGTC: 0.14

Block 3
Target: Ras GTPase-activating protein-binding protein 1, full length (G3BP1, Homo sapiens, UniProt Q13283)
Sequence of UniProt Q13283 (whole entry, looked up): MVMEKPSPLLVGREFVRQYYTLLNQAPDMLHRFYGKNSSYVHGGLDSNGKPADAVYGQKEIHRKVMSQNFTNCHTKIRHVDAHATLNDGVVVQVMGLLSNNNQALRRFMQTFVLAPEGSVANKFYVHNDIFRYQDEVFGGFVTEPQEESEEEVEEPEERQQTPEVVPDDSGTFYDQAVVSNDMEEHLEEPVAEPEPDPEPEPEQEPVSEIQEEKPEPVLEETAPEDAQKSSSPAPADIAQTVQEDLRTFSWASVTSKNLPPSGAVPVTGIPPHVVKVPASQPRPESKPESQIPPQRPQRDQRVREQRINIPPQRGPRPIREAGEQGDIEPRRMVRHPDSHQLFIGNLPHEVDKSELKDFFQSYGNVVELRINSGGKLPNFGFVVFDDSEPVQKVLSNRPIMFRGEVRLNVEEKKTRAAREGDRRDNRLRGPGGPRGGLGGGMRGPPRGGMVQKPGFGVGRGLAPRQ
Method: RNA Bind-n-Seq
Molecule type: RNA
Medium: in vitro
Concentration: 200 nM
Notes: whole 134-nt RNA, ends assumed
Together with: 150 mM KCl
Baseline: input library
Direction: higher = stronger binding
Endpoint: log2 enrichment
All sequences stand within: GGGAGUUCUACAGUCCGACGAUC … UGGAAUUCUCGGGUGUCAAGG
GUUAAUUCCACCAUCCCCAUCACAGCAGAAGUUUUCAAGAAGCAUGGAGUGUACAACCCCAACAAAAUCUUCGGCGUGACGACCCUGGAC: 1.18
UCAAGUCCUGUGCUACACAUCGUAUGUACCGAAUCGGGAAAGGAAAGGGAAAGGGAAAGUAUUAUGUUACGCCGUUCGGAUCUGCACUUC: -0.619
CAUAGACAACACGCACCCACACAGACACAGAGGGAAGGGGUUGGGAUGGGGACAGGGUGCACAGCAGGGCGGGGUAGGACCCCAGCCCCU: 1.92
CAAGUCCUGUGCUACACAUCGUAUGUACCGAAUCGGGGCCGGGGCCGGGGCCGGGAAAGUAUUAUGUUACGCCGUUCGGAUCUGCACUUC: -0.902
ACCAUGCCGGUGGGCAUCUUUGGGAAGUGGGGCAAGGGGGGGAUAGGGAGGGGGGUAACACUUUGGGAACAGGUGGUCCCAGGUCGUUUC: 1.49
AAGUCCUGUGCUACACAUCGUAUGUACCGAAUCGGGAGGGAAAAAAAGGGUUUGGGAAAGUAUUAUGUUACGCCGUUCGGAUCUGCACUU: 0.177
CACAGACAACACGCACCCACACAGACACAGAGGGAAGGGGUUGGGAUGGGGACAGGGUGCACAGCAAGGCGGGGUAGGACCCCAGCCCCU: 1.78
GCAGGAAGUAAAAACAAAUGGAAAUGCUUCGGAUAGUGGCAGGGGUGGGGUUUGCUAAGGAAAGGGUGGGAUGGGAGUGGGUAAAGAGUU: 0.776
GUCCUGUGCUACACAUCGUAUGUACCGAAUCGGUUUUUGGGGUUUUUGGGGUUUUUGGAAAGUAUUAUGUUACGCCGUUCGGAUCUGCAC: -0.469
GCCACCAUGCCCACCUAGUUUUUGCAUUUUUAGUGGAGGUGUGGUUUCACUGUGUUGGCCAGGCUGGUCUCUUAACUCCUGACCUCAGGU: -0.0601
GUCCUGUGCUACACAUCGUAUGUACCGAAUCGGAAAAAAGGAAAAAAGGAAAAAAGGGGAAAGUAUUAUGUUACGCCGUUCGGAUCUGCA: -0.815
CUCAAGUCCUGUGCUACACAUCGUAUGUACCGAAUCGGGAAGGGAAGGGAAGGAAAGUAUUAUGUUACGCCGUUCGGAUCUGCACUUCCA: -0.189
UUCAAGGCCAUGAAGGACCUGUUUAUGCGGUGCAUGCUGUUUACCAGAGGAGGACAUCAGAUCCUGCAUUAUGUACACUGAUCGUUUCUG: -0.858
AAGUCCUGUGCUACACAUCGUAUGUACCGAAUCGGGUUUGGGUUUGGGGUUUGGGGAAAGUAUUAUGUUACGCCGUUCGGAUCUGCACUU: 0.467

Other studies, line by line
PhoQ, residues 284 288 289 292 302 303 AGHLVA
fold induction (PhoP, residues 12 14 15 18 19 SEGLL (Escherichia coli, UniProt P23836); Sort-seq, item: YFP reporter; E. coli; PhoQ-PhoP variant library, together with: 10 µM Mg2+; baseline: high Mg2+ state, higher = stronger signaling): 10.5

A few entries again (block 1):
PSIKRQLLNEFDR [N6Q]: -0.0314
PSIKRNLLNKFDR [E10K]: -0.283
